Assay results gathered from unrelated publications.
Every numbered part comes from another study and shows a few of its results, in no order.

Series 1
Molecule: PhoQ, residues 284 288 289 292 302 303 AEGLLW
Technique: Sort-seq
Item: YFP reporter
Sample: E. coli
Setting: PhoQ-PhoP variant library
Together with: 10 µM Mg2+
Baseline: high Mg2+ state
Direction: higher = stronger signaling
| target | fold induction |
| --- | --- |
| PhoP, residues 12 14 15 18 19 VHTVL (Escherichia coli, UniProt P23836) | 4.8 |
| PhoP, residues 12 14 15 18 19 ICWRQ (Escherichia coli, UniProt P23836) | 2.93 |
| PhoP, residues 12 14 15 18 19 TQCLL (Escherichia coli, UniProt P23836) | 2.65 |

Series 2
Target: Interferon regulatory factor 7, full length, phosphomimetic (IRF7, Homo sapiens, UniProt Q92985, residues 1-503, S101K/S471D/S472D/S475D/S476D/S477D/S483D/S484D/S487D)
Sequence of UniProt Q92985 (whole entry, unmodified, looked up): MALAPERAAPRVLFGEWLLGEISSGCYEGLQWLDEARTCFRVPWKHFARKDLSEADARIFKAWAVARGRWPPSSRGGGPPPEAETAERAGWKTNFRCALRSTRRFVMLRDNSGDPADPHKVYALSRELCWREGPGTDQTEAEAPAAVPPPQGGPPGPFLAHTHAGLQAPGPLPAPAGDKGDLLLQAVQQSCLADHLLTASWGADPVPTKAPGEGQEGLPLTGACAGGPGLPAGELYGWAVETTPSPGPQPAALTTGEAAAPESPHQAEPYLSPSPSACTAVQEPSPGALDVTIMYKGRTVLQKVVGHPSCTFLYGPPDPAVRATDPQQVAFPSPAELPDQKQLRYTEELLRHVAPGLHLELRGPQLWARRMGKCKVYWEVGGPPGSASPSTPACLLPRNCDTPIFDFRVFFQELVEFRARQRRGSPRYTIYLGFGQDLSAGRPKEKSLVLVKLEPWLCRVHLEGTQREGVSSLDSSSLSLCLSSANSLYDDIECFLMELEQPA
Technique: protein-binding microarray
Form: double-stranded DNA, one strand shown
Sample: in vitro
Concentration: 250 nM
Setting: 60-bp whole probe
Together with: salmon DNA 0.4 mg/ml
Baseline: random background probes
Direction: higher = stronger binding
| Strand | log fluorescence [z-score] |
| --- | --- |
| GCCTAGCACTTAGGTATCGGTATCGGCTAGTGCTAGGTCTTGATTCGCTTGACGCTGCTG | 1.57 |
| GCCTAGCACTCACATGTTTTTTTCTAACTGTGCTAGGTCTTGATTCGCTTGACGCTGCTG | 0.919 |
| GCCTAGCACTATGTTCCCTATTTAAGACCGTGCTAGGTCTTGATTCGCTTGACGCTGCTG | 4.68 |
| GCCTAGCACTAAGGTTTCCTTTTCCTTTAGTGCTAGGTCTTGATTCGCTTGACGCTGCTG | 7.49 |

Series 3
Target: Sal-like protein 4, full length isoform B (SALL4, Homo sapiens, UniProt Q9UJQ4-2, residues 1-616)
Technique: universal PBM
Form: double-stranded DNA, one strand shown
Sample: in vitro
Concentration: not given
Setting: 8-mer, flanks averaged, mean of replicates
Direction: higher = stronger binding
| Strand | E-score |
| --- | --- |
| CGTGCAAG | -0.181 |
| AATTACTG | 0.156 |
| TACGGCCA | -0.208 |
| AAGGACCA | -0.176 |
| GTCTCGTA | 0.0454 |
| CCACCGTC | -0.311 |
| AAAGGGTA | 0.192 |
| CGGCGCAG | -0.255 |
| ACTGCGCA | 0.0176 |

Series 4
Target: Histone acetyltransferase KAT6A, both winged helices, GST fusion (KAT6A, Homo sapiens, UniProt Q92794, residues 1-181)
Technique: protein binding microarray
Form: double-stranded DNA, one strand shown
Sample: in vitro
Concentration: not given
Setting: 8-mer, flanks averaged, mean of 2 arrays, mostly near background
Baseline: not given
Direction: higher = stronger binding
Residues (chain): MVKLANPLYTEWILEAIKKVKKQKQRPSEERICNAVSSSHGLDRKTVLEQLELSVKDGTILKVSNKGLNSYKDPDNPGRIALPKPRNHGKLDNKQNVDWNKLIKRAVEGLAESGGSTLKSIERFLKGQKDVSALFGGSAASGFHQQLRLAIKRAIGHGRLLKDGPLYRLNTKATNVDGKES
| Strand | E-score |
| --- | --- |
| AGTCGTAA | -0.124 |
| CACGCGAG | 0.193 |
| GCTAGTAC | 0.0579 |
| CATTGGGG | -0.182 |
| CGAATTAC | 0.0402 |

Excerpt of the above (series 3):
| Strand | E-score |
| --- | --- |
| ACTGCGCA | 0.0176 |
| CGGCGCAG | -0.255 |
